Assay results gathered from unrelated publications.
Each numbered part is a random draw from the data of one study; scales do not carry over between parts.

Sample 1 — method: aptamer microarray, sandwich; form: DNA with 2'F-ANA; sample: in vitro; tested at: 200 nM; with: Cy3 exosite-II aptamer, 400 nM; direction: higher = stronger binding; endpoint: mean fluorescence intensity; strand: GGTTGGTGTGGTTGG
Target: Prothrombin, mature alpha-thrombin (F2, Homo sapiens, UniProt P00734)
Notes: whole 15-mer aptamer, many near background
2'F-ANA at 1 4 6 7 8 11 12: 230 a.u.
2'F-ANA at 1 2 3 4 5 7 9 11 12 13 15: 67.2 a.u.
2'F-ANA at 1 3 4 5 7 13 14: 79.4 a.u.
2'F-ANA at 3 6 9 12 15: 1160 a.u.
2'F-ANA at 4 6 13 15: 164 a.u.
2'F-ANA at 3 5 6 7 8 9 10 11 12 14: 68 a.u.
2'F-ANA at 1 2 3 4 7 9 11 15: 142 a.u.
2'F-ANA at 1 5 6 8 9 10 11 13 14: 47 a.u.
2'F-ANA at 1 2 3 5 7 9 11 14 15: 48.3 a.u.
2'F-ANA at 2 3 4 5 8 13: 68.3 a.u.
2'F-ANA at 1 3 4 5 6 7 9 10 11: 50.6 a.u.
2'F-ANA at 1 2 4 5 6 11 13 14 15: 50.9 a.u.
2'F-ANA at 4 5 6 7 9 10 11 12: 54 a.u.
2'F-ANA at 2 9: 497 a.u.
2'F-ANA at 1 2 7 8 9 11 12 15: 302 a.u.
2'F-ANA at 1 3 5 6 12 15: 115 a.u.
2'F-ANA at 2 3 4 6 7 9 11 12 13: 423 a.u.
2'F-ANA at 5 6 7 8 9 10 11 13 15: 51.6 a.u.
2'F-ANA at 2 3 5 6 7 8 9 10 13 14: 51.9 a.u.
2'F-ANA at 1 2 5 6 9 10 12 13 14: 51.1 a.u.
2'F-ANA at 1 2 4 5 6 7 11 15: 55.5 a.u.
2'F-ANA at 4 7 10 11 12 13 14 15: 60.5 a.u.
2'F-ANA at 2 5 7 11 12 13 15: 99 a.u.
2'F-ANA at 1 2 3 4 8 11 13: 161 a.u.
2'F-ANA at 3 11 12: 1430 a.u.

Sample 2 — method: RNA Bind-n-Seq; form: RNA; sample: in vitro; tested at: 200 nM; notes: whole 134-nt RNA, ends assumed; with: 150 mM LiCl; reference: input library; direction: higher = stronger binding; endpoint: log2 enrichment; all molecules: 7-deaza-guanosine replaces G
Target: Fragile X messenger ribonucleoprotein 1, C-terminal low-complexity region (Fmr1, Mus musculus, UniProt P35922)
Shared flanks, not repeated: GGGAGUUCUACAGUCCGACGAUC … UGGAAUUCUCGGGUGUCAAGG
ACCAUGCAGGUGGGCAUCUAUGGGAAGUGGGGCAAGGGGGGGAUAGGGAGGGGGGUAACACUUUGGGAACAGGUGGUCCCAGGUCGUUUC: 1.49
GUCCUGUGCUACACAUCGUAUGUACCGAAUCGGGGUUUUUGGGGUUUUUGGUUUUUGGGAAAGUAUUAUGUUACGCCGUUCGGAUCUGCA: -1.52
CUGUGCUACACAUCGUAUGUACCGAAUCGGGAAAAAAAGGGAAAAAAAGGGAAAAAAAGGGGAAAGUAUUAUGUUACGCCGUUCGGAUCU: 0.312
CACAGACAACACGCACCCACACAGACACAGAGGGAAGGGGUUGGGAUGGGGACAGGGUGCACAGCAGGGCGGGGUAGGACCCCAGCCCCA: 0.281
UGGGAGGUGGAUUUUGUUUAUUUUUUUAGCUCAUUUCCAGGGGUGGGAAUUUUUUUUUAAUAUGUGUCAUGAAUAAAGUCGUUUUUGAAA: 0.156
CCUCAAGUCCUGUGCUACACAUCGUAUGUACCGAAUCGGCGGGGCGGGGCGGGAAAGUAUUAUGUUACGCCGUUCGGAUCUGCACUUCCA: -0.634
GUCCUGUGCUACACAUCGUAUGUACCGAAUCGGGUUUUUUUGGGAAAAAAAGGGUGGGAAAGUAUUAUGUUACGCCGUUCGGAUCUGCAC: -2.39
GCAGGAAGUAAAAACAAAUGGAAAUGCUUCGGAUAGUGGCAGGGGUGGGGGUUGCUAAGGAGAGGGUGGGAUGGGAGUGGGUAAAGAGUU: 1.42
ACCAUGCAGGUGGGCAUCUUUGGGAAGUGGGGCAAGGGGGGGAUAGGGAGGGGGGUAACACUAAAGGAACAGGUGGUCCCAGGUCGUUUC: 1.46
CACAGACAACACGCACCCACACAGACACAGAGGGAAGGGGUUGGGAUGGGGACAGGGUGCACAGCACGGCGGGGUAGGACCCCAGCCCCU: -0.362
GUCCUGUGCUACACAUCGUAUGUACCGAAUCAAACCCAAACCCCCAAAUUUUUUUAAAAAAGUAUUAUGUUACGCCGUUCGGAUCUGCAC: 1.78

Sample 3 — method: protein-binding microarray; form: double-stranded DNA, one strand shown; sample: in vitro; tested at: 250 nM; notes: 60-bp whole probe; with: salmon DNA 0.4 mg/ml; reference: random background probes; direction: higher = stronger binding; endpoint: log fluorescence; shared flanks, not repeated: GCCTAGCAC … GTCTTGATTCGCTTGACGCTGCTG
Target: Interferon regulatory factor 7, full length, phosphomimetic (IRF7, Homo sapiens, UniProt Q92985, residues 1-503, S101K/S471D/S472D/S475D/S476D/S477D/S483D/S484D/S487D)
Chain of UniProt Q92985 (whole entry, unmodified, looked up): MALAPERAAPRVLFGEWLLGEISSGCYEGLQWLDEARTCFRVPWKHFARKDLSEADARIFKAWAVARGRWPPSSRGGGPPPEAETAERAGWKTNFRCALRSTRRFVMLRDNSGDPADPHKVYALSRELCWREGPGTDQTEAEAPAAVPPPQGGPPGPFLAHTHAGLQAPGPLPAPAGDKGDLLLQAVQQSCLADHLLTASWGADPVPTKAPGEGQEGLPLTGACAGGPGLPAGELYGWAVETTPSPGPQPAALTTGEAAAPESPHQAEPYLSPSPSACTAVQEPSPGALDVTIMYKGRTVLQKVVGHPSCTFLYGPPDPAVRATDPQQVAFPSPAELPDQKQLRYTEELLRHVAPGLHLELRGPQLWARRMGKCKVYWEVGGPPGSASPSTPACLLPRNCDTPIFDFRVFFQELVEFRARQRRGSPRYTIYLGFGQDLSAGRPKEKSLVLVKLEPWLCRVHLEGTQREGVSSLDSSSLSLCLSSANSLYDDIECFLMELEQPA
TTAGAACCGGGGACTGGATTAGTGCTA: -0.232 z-score
TCATTTCTCCCAAGTCTTACTGTGCTA: 1.82 z-score
TAAGGTCTCCTTATCCTTTAGTGCTAG: 0.43 z-score
ATGTGTTTAAGAATGTTTTTGTGCTAG: 0.197 z-score
GACGGTTTCCTAATCCTGACGTGCTAG: 2.42 z-score
TTAGGTTCCGGTTTCGGTTTGTGCTAG: 13.7 z-score
GACGGTCTCCTACTGCTTACGTGCTAG: -0.501 z-score
GACTGTCTCGGTATCGGGACGTGCTAG: 0.95 z-score
TTAGGTCCCGGTCTCGGTTAGTGCTAG: 2.3 z-score
TTAGATTTCAGTCTCGATCAGTGCTAG: 0.917 z-score
GATGGTCTCGGTTTCGGGACGTGCTAG: 8.5 z-score
TTCCTTTGCTTTCTCCCAAGGTGCTAG: 1.47 z-score
GACGATTTCCGACTGGAGACGTGCTAG: 0.538 z-score
TTAGGTCTCCTCCTCCTTTAGTGCTAG: -0.331 z-score
GACGGTTTCGGGCATCGGGACGTGCTA: 2.18 z-score
GACGGTTTCGGTCTCTGGACGTGCTAG: 9.7 z-score
GACTCTTTCTGTCAGTTTTGGTGCTAG: 1.14 z-score
TCCTGCTGTACCCCTAGGGCGTGCTAG: -0.217 z-score
TTAGATCTCAGTATCGCTTAGTGCTAG: 0.318 z-score
GACGGTTTCGGTATCGGGAGGTGCTAG: 10.8 z-score
TTAGGTCTCCTTCTCCTTAAGTGCTAG: 0.699 z-score
CTTGCTTGGTGTCTCTGGCCGTGCTAG: -0.535 z-score
GACGGCCTGGGTATCGGGACGTGCTAG: -0.656 z-score
GCCGGACTGGGTATCGGGACGTGCTAG: -0.321 z-score
CTAGATATCAGTATCGATTAGTGCTAG: 1.59 z-score

Sample 4 — method: protein binding microarray; form: double-stranded DNA, one strand shown; sample: in vitro; tested at: not given; reference: not given; direction: higher = stronger binding; endpoint: E-score
Target: Histone acetyltransferase KAT6A, both winged helices, GST fusion (KAT6A, Homo sapiens, UniProt Q92794, residues 1-181)
Notes: 8-mer, flanks averaged, mean of 2 arrays, mostly near background
Target sequence (chain): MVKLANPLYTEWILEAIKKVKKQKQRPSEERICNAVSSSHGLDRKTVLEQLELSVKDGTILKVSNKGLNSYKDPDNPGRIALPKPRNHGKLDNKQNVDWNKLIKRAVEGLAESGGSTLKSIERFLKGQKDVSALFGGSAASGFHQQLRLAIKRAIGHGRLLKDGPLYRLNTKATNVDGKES
CGTCCCCA: 0.0192
AACTGAAG: -0.0561
AATTGGTC: -0.0706
CGATAGAG: -0.122
ACACTCAA: -0.0798
CGGCCCCC: 0.0873
GATGCCAC: -0.111
ACAGCTCA: -0.0955
CGCCGTCC: 0.253
AGACGGCG: 0.211
CACGACGA: -0.0207
AACTACAC: -0.126
CGAGCTAA: -0.0408
CGCTCACG: 0.293
ACAAATCA: -0.0302
CACCGAGG: 0.0137
GACAGTGC: 0.0148

For quick reference, copied from above (sample 2):
CACAGACAACACGCACCCACACAGACACAGAGGGAAGGGGUUGGGAUGGGGACAGGGUGCACAGCACGGCGGGGUAGGACCCCAGCCCCU: -0.362
CUGUGCUACACAUCGUAUGUACCGAAUCGGGAAAAAAAGGGAAAAAAAGGGAAAAAAAGGGGAAAGUAUUAUGUUACGCCGUUCGGAUCU: 0.312
GCAGGAAGUAAAAACAAAUGGAAAUGCUUCGGAUAGUGGCAGGGGUGGGGGUUGCUAAGGAGAGGGUGGGAUGGGAGUGGGUAAAGAGUU: 1.42
GUCCUGUGCUACACAUCGUAUGUACCGAAUCGGGGUUUUUGGGGUUUUUGGUUUUUGGGAAAGUAUUAUGUUACGCCGUUCGGAUCUGCA: -1.52
GUCCUGUGCUACACAUCGUAUGUACCGAAUCAAACCCAAACCCCCAAAUUUUUUUAAAAAAGUAUUAUGUUACGCCGUUCGGAUCUGCAC: 1.78
CACAGACAACACGCACCCACACAGACACAGAGGGAAGGGGUUGGGAUGGGGACAGGGUGCACAGCAGGGCGGGGUAGGACCCCAGCCCCA: 0.281
ACCAUGCAGGUGGGCAUCUUUGGGAAGUGGGGCAAGGGGGGGAUAGGGAGGGGGGUAACACUAAAGGAACAGGUGGUCCCAGGUCGUUUC: 1.46
